{"data": "Results gathered from unrelated publications", "histone H4": "histone H4 (Bos taurus, UniProt P62803)", "GFP/gp17 fusion": "GFP/gp17 fusion (bacteriophage T4)", "T1": "NR1I2/NCOA1 PXR LBD , SRC-1 140-434 (Homo sapiens); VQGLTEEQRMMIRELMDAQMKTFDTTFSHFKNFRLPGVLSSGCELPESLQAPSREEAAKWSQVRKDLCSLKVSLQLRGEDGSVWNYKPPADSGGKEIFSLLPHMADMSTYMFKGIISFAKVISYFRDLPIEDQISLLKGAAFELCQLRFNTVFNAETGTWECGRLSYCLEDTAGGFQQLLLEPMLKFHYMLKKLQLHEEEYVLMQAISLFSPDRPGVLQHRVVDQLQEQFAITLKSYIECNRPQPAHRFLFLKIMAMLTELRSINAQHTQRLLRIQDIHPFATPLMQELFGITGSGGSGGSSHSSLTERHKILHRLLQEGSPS", "B1": "GST/UBTF 670-746; dephosphorylated; sequence looked up; chain TLQSKSESEEDDEEDEDDEDEDEEEEDDENGDSSEDGGDSSESSSEDESEDGDENEEDDEDEDDDEDDDEDEDNESE", "B2": "CCS1 1-74 (Saccharomyces cerevisiae, UniProt P40202); sequence looked up; chain MTTNDTYEATYAIPMHCENCVNDIKACLKNVPGINSLNFDIEQQIMSVESSVAPSTIINTLRNCGKDAIIRGAG", "B3": "NCBP2 (Homo sapiens, UniProt P52298); chain MSGGLLKALRSDSYVELSQYRDQHFRGDNEEQEKLLKKSCTLYVGNLSFYTTEEQIYELFSKSGDIKKIIMGLDKMKKTACGFCFVEYYSRADAENAMRYINGTRLDDRIIRTDWDAGFKEGRQYGRGRSGGQVRDEYRQDYDAGRGGYGKLAQNQ", "B4": "gp20 D340A/K342A (bacteriophage T4, UniProt P13334); sequence looked up; chain MKFNVLSLFAPWAKMDERNFKDQEKEDLVSITAPKLDDGAREFEVSSNEAASPYNAAFQTIFGSYEPGMKTTRELIDTYRNLMNNYEVDNAVSEIVSDAIVYEDDTEVVALNLDKSKFSPKIKNMMLDEFSDVLNHLSFQRKGSDHFRRWYVDSRIFFHKIIDPKRPKEGIKELRRLDPRQVQYVREIITETEAGTKIVKGYKEYFIYDTAHESYACDGRMYEAGTKIKIPKAAVVYAHSGLVDCCGKNIIGYLHRAVKPANQLKLLEDAVVIYRITRAPDRRVWYVDTGNMPARKAAEHMQHVMNTMKNRVVYDASTGKIKNQQHNMSMTEDYWLQRRAGAAVTEVDTLPGADNTGNMEDIRWFRQALYMALRVPLSRIPQDQQGGVMFDSGTSITRDELTFAKFIRELQHKFEEVFLDPLKTNLLLKGIITEDEWNDEINNIKIEFHRDSYFAELKEAEILERRINMLTMAEPFIGKYISHRTAMKDILQMTDEEIEQEAKQIEEESKEARFQDPDQEQEDF", "B5": "SLD5/PSF1/PSF2/PSF3 (Saccharomyces cerevisiae); chain 1 MDINIDDILAELDKETTAVDSTKITQGSSSTTHRDANTIVGSSLDLNDKTQIYVSPQQDFSDLMKSWKNERCSPELLPYPHQLMKRLLNRISMQSQLIENISMGFLDMQNASNANPPMPNESKLPLLCMETELERLKFVIRSYIRCRLSKIDKFSLYLRQLNEDENSLISLTDLLSKDEIKYHDTHSLIWLKLVNDSILKYMPEELQAINDTEGSVNMIDEPDWNKFVFIHVNGPPDGKWNEDPLLQENEFGKPCYTVTIPDLKEEVELTIGSIYVMRYEVIRDLLRDDKVALI; chain 2 MYGDLGNKLVLEAKRTKQLYARSNQDVNLPMYHEDIIRNILKEVSNLRKNTEYLKEQQQLGMLDDKVAKCQYFVTLLCMERNKRCLLAYQRLRTDILDSMAWNNNGLDLMSSITFSQQDTNNLSHQEQEYLKEYCDLITDLKSGDLVDIDLSGSLVPPSDVFIDVRVLKDAGEIQTEYGVFNLIKDSQFFVRQSDVERLIQQGYLQKI; chain 3 MSLPAHLQQTFSPEEIQFIVENEPIKIFPRITTRQKIRGDDRGTGNHTRWQLITTDDKALNNMVAMRSTEVVLWIALLLKQQSKCSIVAPQWLTTKELDRKIQYEKTHPDRFSELPWNWLVLARILFNKAKDDFHDPIHELRGKIQDLREIRQIKVLKGLKYLNESHLQLDNLSLLEINELRPFITEIMDKLREIHTASLTAGTENDEEEFNI; chain 4 MGYYDIDDVLADGTEFPCKFQYDIPGLGYLENNPGRPITKNTKLSLPLWLARILAIVGGDEALVDEEPVPFVELLPPDMFSTKVMNAIKTDPVALDLHSINSHFFSLAIKWIMLFSEKELANVVSELLLQRAQELNHHASSLSIDLNADSTGKNSANTNIATSTFLLKLEEMEKEIYKKSHESYKDTKRWMFKK", "B6": "TNS3 SH2 domain, GST fusion 1172-1282 (Homo sapiens, UniProt Q68CZ2); tyrosine phosphorylated; sequence looked up; chain WYKADISREQAIAMLKDKEPGSFIVRDSHSFRGAYGLAMKVATPPPSVLQLNKKAGDLANELVRHFLIECTPKGVRLKGCSNEPYFGSLTALVCQHSITPLALPCKLLIPE", "B7": "MYBPC3 C0 domain 1-95 G5R (Homo sapiens, UniProt Q14896); sequence looked up; chain MPEPRKKPVSAFSKKPRSVEVAAGSPAVFEAETERAGVKVRWQRGGSDISASNKYGLATEGTRHTLTVREVGPADQGSYAVIAGSSKVKFDLKVI", "B8": "UGT1A9 (Homo sapiens, UniProt O60656); chain GKLLVVPMDGSHWFTMRSVVEKLILRGHEVVVVMPEVSWQLGRSLNCTVKTYSTSYTLEDLDREFKAFAHAQWKAQVRSIYSLLMGSYNDIFDLFFSNCRSLFKDKKLVEYLKESSFDAVFLDPFDNCGLIVAKYFSLPSVVFARGILCHYLEEGAQCPAPLSYVPRILLGFSDAMTFKERVRNHIMHLEEHLLCHRFFKNALEIASEILQTPVTEYDLYSHTSIWLLRTDFVLDYPKPVMPNMIFIGGINCHQGKPLPMEFEAYINASGEHGIVVFSLGSMVSEIPEKKAMAIADALGKIPQTVLWRYTGTRPSNLANNTILVKWLPQNDLLGHPMTRAFITHAGSHGVYESICNGVPMVMMPLFGDQMDNAKRMETKGAGVTLNVLEMTSEDLENALKAVINDKSYKENIMRLSSLHKDRPVEPLDLAVFWVEFVMRHKGAPHLRPAAHDLTWYQYHSLDVIGFLLAVVLTVAFITFKCCAYGYRKCLGKKGRVKKAHKSKTH", "B9": "gp20 N291A/M292A (bacteriophage T4, UniProt P13334); sequence looked up; chain MKFNVLSLFAPWAKMDERNFKDQEKEDLVSITAPKLDDGAREFEVSSNEAASPYNAAFQTIFGSYEPGMKTTRELIDTYRNLMNNYEVDNAVSEIVSDAIVYEDDTEVVALNLDKSKFSPKIKNMMLDEFSDVLNHLSFQRKGSDHFRRWYVDSRIFFHKIIDPKRPKEGIKELRRLDPRQVQYVREIITETEAGTKIVKGYKEYFIYDTAHESYACDGRMYEAGTKIKIPKAAVVYAHSGLVDCCGKNIIGYLHRAVKPANQLKLLEDAVVIYRITRAPDRRVWYVDTGAAPARKAAEHMQHVMNTMKNRVVYDASTGKIKNQQHNMSMTEDYWLQRRDGKAVTEVDTLPGADNTGNMEDIRWFRQALYMALRVPLSRIPQDQQGGVMFDSGTSITRDELTFAKFIRELQHKFEEVFLDPLKTNLLLKGIITEDEWNDEINNIKIEFHRDSYFAELKEAEILERRINMLTMAEPFIGKYISHRTAMKDILQMTDEEIEQEAKQIEEESKEARFQDPDQEQEDF", "B10": "CDC6 (Saccharomyces cerevisiae, UniProt P09119); chain MSAIPITPTKRIRRNLFDDAPATPPRPLKRKKLQFTDVTPESSPEKLQFGSQSIFLRTKALLQKSSELVNLNSSDGALPARTAEYEQVMNFLAKAISEHRSDSLYITGPPGTGKTAQLDMIIRQKFQSLPLSLSTPRSKDVLRHTNPNLQNLSWFELPDGRLESVAVTSINCISLGEPSSIFQKIFDSFQDLNGPTLQIKNMQHLQKFLEPYHKKTTFVVVLDEMDRLLHANTSETQSVRTILELFLLAKLPTVSFVLIGMANSLDMKDRFLSRLNLDRGLLPQTIVFQPYTAEQMYEIVIQKMSSLPTIIFQPMAIKFAAKKCAGNTGDLRKLFDVLRGSIEIYELEKRFLLSPTRGSLNSAQVPLTPTTSPVKKSYPEPQGKIGLNYIAKVFSKFVNNNSTRTRIAKLNIQQKLILCTIIQSLKLNSDATIDESFDHYIKAITKTDTLAPLQRNEFLEICTILETCGLVSIKKTKCKGKTKRFVDKIDVDLDMREFYDEMTKISILKPFLH", "note": "Compare with care: the assays were run in different laboratories.", "chain of UniProt Q09161 (whole entry, unmodified, looked up)": "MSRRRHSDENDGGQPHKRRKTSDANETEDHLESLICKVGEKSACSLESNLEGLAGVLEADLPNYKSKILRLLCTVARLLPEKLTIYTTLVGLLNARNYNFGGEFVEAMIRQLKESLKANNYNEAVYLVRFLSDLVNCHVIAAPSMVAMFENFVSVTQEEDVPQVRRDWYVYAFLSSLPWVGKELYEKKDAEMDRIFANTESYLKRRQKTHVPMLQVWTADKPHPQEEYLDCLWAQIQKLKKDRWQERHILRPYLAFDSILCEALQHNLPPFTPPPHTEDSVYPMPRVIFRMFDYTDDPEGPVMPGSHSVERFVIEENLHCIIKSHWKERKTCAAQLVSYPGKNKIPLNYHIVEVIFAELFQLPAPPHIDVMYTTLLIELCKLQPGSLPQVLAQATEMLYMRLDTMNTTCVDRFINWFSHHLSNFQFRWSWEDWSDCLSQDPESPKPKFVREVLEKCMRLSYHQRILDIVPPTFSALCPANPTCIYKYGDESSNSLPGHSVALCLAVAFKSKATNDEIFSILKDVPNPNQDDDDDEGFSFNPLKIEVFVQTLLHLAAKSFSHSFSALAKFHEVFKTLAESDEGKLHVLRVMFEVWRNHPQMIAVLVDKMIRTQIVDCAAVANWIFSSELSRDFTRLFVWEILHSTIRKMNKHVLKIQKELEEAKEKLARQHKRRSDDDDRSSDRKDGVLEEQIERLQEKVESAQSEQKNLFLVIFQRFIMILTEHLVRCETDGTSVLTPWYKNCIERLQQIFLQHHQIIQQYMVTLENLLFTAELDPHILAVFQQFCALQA", "chain of UniProt P36046 (whole entry, looked up)": "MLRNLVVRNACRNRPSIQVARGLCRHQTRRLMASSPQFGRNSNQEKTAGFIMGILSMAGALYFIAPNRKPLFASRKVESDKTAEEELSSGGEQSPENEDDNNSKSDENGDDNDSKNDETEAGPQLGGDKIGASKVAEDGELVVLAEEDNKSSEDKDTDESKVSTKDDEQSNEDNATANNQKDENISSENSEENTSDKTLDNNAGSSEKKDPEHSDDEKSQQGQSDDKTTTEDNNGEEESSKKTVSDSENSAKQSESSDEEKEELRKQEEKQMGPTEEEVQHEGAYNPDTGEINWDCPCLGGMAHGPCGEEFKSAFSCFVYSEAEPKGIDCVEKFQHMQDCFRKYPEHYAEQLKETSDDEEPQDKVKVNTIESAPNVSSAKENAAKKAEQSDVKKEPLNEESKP", "chain of UniProt O14965 (whole entry, looked up)": "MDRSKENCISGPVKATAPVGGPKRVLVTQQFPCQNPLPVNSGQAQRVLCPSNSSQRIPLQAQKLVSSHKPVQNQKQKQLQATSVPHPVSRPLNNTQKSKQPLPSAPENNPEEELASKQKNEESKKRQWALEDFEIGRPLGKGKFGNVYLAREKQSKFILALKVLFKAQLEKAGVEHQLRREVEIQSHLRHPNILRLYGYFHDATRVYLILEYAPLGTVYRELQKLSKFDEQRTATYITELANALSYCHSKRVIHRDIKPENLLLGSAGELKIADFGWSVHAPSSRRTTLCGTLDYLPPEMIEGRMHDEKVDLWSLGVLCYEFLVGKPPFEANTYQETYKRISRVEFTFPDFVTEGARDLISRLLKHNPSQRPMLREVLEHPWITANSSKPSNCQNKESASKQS"}
{"Substance": "BRD1 fragment E41K/E43K/E45K (Homo sapiens) (sequence not shown)", "target or system": "histone H4", "assay": "pull-down", "quantity": "binding", "result": "binds"}
{"Substance": "EDFRSGSEAFDLIAQDEEEFNKEHQ (CEP192 506-530 (Homo sapiens, UniProt Q8TEP8))", "target or system": "AURKA kinase domain 123-403, phosphorylated (Homo sapiens, UniProt O14965)", "assay": "ITC", "quantity": "binding", "result": "binds"}
{"Substance": "MSEETKENEGFTVTAEGKGQGTLSVVTMYHAKAKDQLTCNK (C3 1299-1338, C-terminal GST fusion (Homo sapiens, UniProt P01024))", "target or system": "ITGAM 145-331 (Homo sapiens, UniProt P11215)", "assay": "ELISA", "setting": "with: MgCl2 1 mM", "quantity": "binding", "result": "binds"}
{"Substance": "B1 (GST/UBTF 670-746)", "target or system": "TBP/TAF1A/TAF1B/TAF1C (Homo sapiens)", "assay": "pull-down", "system": "not purified SL1", "setting": "with or without phosphatase", "quantity": "binding", "result": "binds"}
{"Substance": "B2 (CCS1 1-74)", "target or system": "MIA40 284-403, oxidized (UniProt P36046)", "assay": "pull-down", "setting": "10 min, pH 7.0, 25 °C, NaCl 200 mM, nonreducing", "quantity": "binding", "result": "binds"}
{"Substance": "AKLLGLLAELRSINEA (NR1I3 residues 310-325 (Homo sapiens))", "target or system": "T1, NR1I2/NCOA1 PXR LBD , SRC-1 140-434 (Homo sapiens)", "assay": "competition with ligand, dynamic light scattering", "system": "peptide", "quantity": "binding", "result": "binds"}
{"Substance": "B3 (NCBP2)", "target or system": "NCBP1 (Homo sapiens, UniProt Q09161)", "assay": "crystal structure", "quantity": "binding", "result": "binds"}
{"Substance": "BACH1 BTB domain C34A (Homo sapiens) (sequence not shown)", "target or system": "FBXL17/SKP1 FBXL17 310-701 (Homo sapiens)", "assay": "BLI", "setting": "apparent", "quantity": "binding", "result": "binds"}
{"Substance": "B4 (gp20 D340A/K342A)", "target or system": "GFP/gp17 fusion", "assay": "co-sedimentation", "setting": "30 min, NaCl 100 mM, bound relative to gp23", "quantity": "binding", "result": "binds"}
{"Substance": "B5 (SLD5/PSF1/PSF2/PSF3)", "target or system": "MCM2/MCM3/MCM4/MCM5/MCM6/MCM7 loaded double hexamer, DDK phosphorylated (Saccharomyces cerevisiae)", "assay": "pull-down", "quantity": "binding", "result": "binds"}
{"Substance": "BRD1 fragment E62K/D63K/D64K (Homo sapiens) (sequence not shown)", "target or system": "histone H4", "assay": "pull-down", "quantity": "binding", "result": "binds"}
{"Substance": "GGDSSESSSEDESEDGDENEEDDEDEDDDEDDDEDEDNESE (UBTF 706-746 (Homo sapiens, UniProt P17480); sequence looked up)", "target or system": "TBP/TAF1A/TAF1B/TAF1C (Homo sapiens)", "assay": "pull-down", "system": "not purified SL1", "setting": "with or without phosphatase", "quantity": "binding", "result": "binds"}
{"Substance": "B6", "target or system": "PTK2, pY397 (Homo sapiens, UniProt Q05397)", "assay": "far-Western", "setting": "phosphorylated, in cells", "quantity": "binding", "result": "binds"}
{"Substance": "B7 (MYBPC3 C0 domain 1-95 G5R)", "target or system": "MYH7/MYL2 MYH7 806-835", "assay": "NMR titration", "quantity": "binding", "result": "binds"}
{"Substance": "B8 (UGT1A9)", "target or system": "O=C(/C=C/c1ccc(O)cc1)c1ccccc1", "assay": "steady-state kinetics", "setting": "pH 7.4, 37 °C", "quantity": "Km", "result": "1.62 µM"}
{"Substance": "B9 (gp20 N291A/M292A)", "target or system": "GFP/gp17 fusion", "assay": "co-sedimentation", "setting": "30 min, NaCl 100 mM, bound relative to gp23", "quantity": "binding", "result": "binds"}
{"Substance": "B10 (CDC6)", "target or system": "MCM2/MCM3/MCM4/MCM5/MCM6/MCM7 hexamer (Saccharomyces cerevisiae)", "assay": "cross-linking", "quantity": "binding", "result": "binds"}
{"Substance": "ORAI1 fragment R91W, fluorescein label (Homo sapiens) (sequence not shown)", "target or system": "Stim1 fragment (Mus musculus)", "assay": "fluorescence polarisation", "quantity": "binding", "result": "binds"}
{"note": "Excerpt of the above:"}
{"Substance": "BRD1 fragment E41K/E43K/E45K (Homo sapiens) (sequence not shown)", "target or system": "histone H4", "assay": "pull-down", "quantity": "binding", "result": "binds"}
{"Substance": "EDFRSGSEAFDLIAQDEEEFNKEHQ (CEP192 506-530 (Homo sapiens, UniProt Q8TEP8))", "target or system": "AURKA kinase domain 123-403, phosphorylated (Homo sapiens, UniProt O14965)", "assay": "ITC", "quantity": "binding", "result": "binds"}
{"Substance": "MSEETKENEGFTVTAEGKGQGTLSVVTMYHAKAKDQLTCNK (C3 1299-1338, C-terminal GST fusion (Homo sapiens, UniProt P01024))", "target or system": "ITGAM 145-331 (Homo sapiens, UniProt P11215)", "assay": "ELISA", "setting": "with: MgCl2 1 mM", "quantity": "binding", "result": "binds"}
